Experimental data from different studies.
Each line is one published result; not all experiments were run side by side. Numbers after ± are the reported error.

C[C@H](NC(=O)COC(=O)[C@H](C)NC(=O)CO)C(=O)O — depolymerization half-life (water; pH 8, 50 °C): 0.6 min
CCCC[C@H](NC(=O)[C@H](CC(C)C)N(C)C(=O)CNC(=O)[C@@H](NC(=O)[C@H](Cc1ccccc1)NC(=O)[C@H](CCCCN)NC(=O)[C@@H](N)CC(=O)O)C(C)C)C(N)=O — mean arterial pressure (anaesthetised minipig; sublingual, 5 mg/kg): no effect
COc1cc(N(C)CCN(C)C)c(NC(=O)CCSCC(NC(C)=O)C(=O)O)cc1Nc1nccc(-c2cn(C3CC3)c3ccccc23)n1 (centres unmarked) — share of radioactivity (radio-HPLC; human, feces; dose not given, 48 to 96 h, sample holds 20.06% dose; relative to: sample radioactivity): 3.05%
CCCC(CCC)NC(=O)c1ccc(O)c(OC2OC(C(=O)O)C(O)C(O)C2O)c1 (centres unmarked) — peak area (LC-MS extracted ion chromatogram; Sprague-Dawley rat, male and female, pooled plasma; oral, 200 mg/kg, 1 h): 648000 cps
CCC(C)n1c(C(=O)Nc2cnc(C(=O)NC)n(CC(C)C)c2=O)ncc(NC(=O)c2ncc(NC(=O)c3ccccc3)c(=O)n2Cc2ccc(OC)cc2)c1=O (centres unmarked) — decomposition (HPLC; Tween 20/ethanol/phosphate buffer (7:3:90); 24 h, pH 7.5): 0.7%
[11CH3]c1ccc2nc(C3CCC3)n(-c3ccc4[nH]ncc4c3)c2n1 — absorbed dose (extrapolated from mouse; human male, heart wall): 4.4 µSv/MBq
COc1cccc(Cn2c(OC3CCN(C(=O)C4CC4)CC3)nc3c2c(=O)n(C)c(=O)n3C)c1 — half-life (metabolic stability; rat, liver microsomes): 8 min
O=C(CCc1ccc(CNC(C(=O)O)C2CCCCC2)cn1)NO (centres unmarked) — AUC(0-t) (healthy male humans, plasma; oral, 60 mg, single dose, geometric mean): 280 ng·h/mL
COC(=O)c1ccc(-c2cn(Cc3cc(Cl)ccc3O[11CH3])nn2)cc1 — peak uptake (PET/CT; C57BL/6 mouse, lung; 2 min): 1.39 %ID/cc
CCNC(=O)OCc1c(COC(=O)NCC)c(-c2ccc(OC)cc2)n2c1Cc1ccccc1-2 — LDH activity (BALB/c nude mice, blood; dose not given, day 10): 473 ± 8 U/L
COCC1CN(C2CCN(c3cc(OC)c(Nc4ncc(Br)c(Nc5ccc6c(c5P(C)(C)=O)OCCO6)n4)cc3C)CC2)C1 — treatment-related neutrophil count increase (human; oral, 10 to 240 mg once daily, all grades): 11.1%
COC[C@@H](CC(C)C)NC(=O)c1ccc(C)c(CO)c1 — metabolite peak area (LC-MS; Sprague-Dawley rat, both sexes, rat liver microsomes; 10 µM of parent drug, 20 min, pH 7.4, with: NADPH; relative to: parent drug at time zero): 0.7%
Cn1c(=O)oc2ccc(-c3ccc(CC(C#N)NC(=O)C4CNCCCO4)c(F)c3)cc21 (centres unmarked) — subjects with adverse event (refers to: skin exfoliation; human; 15 mg, treatment-related, single dose, fasted): 0%
CCCC[C@@H]1NC(=O)[C@@H](NC(=O)[C@H](CCC(=O)O)NC(=O)CNC(=O)CN2CCN(CC(=O)O)CCN(CC(=O)O)CCN(CC(=O)O)CC2)CCCCNC(=O)C[C@@H](C(N)=O)NC(=O)[C@H](C(C)C)NC(=O)[C@@H]2CCCN2C(=O)[C@H](CCCNC(=N)N)NC(=O)CNC(=O)[C@H](Cc2c[nH]c3ccccc23)NC(=O)[C@H](CCCNC(=N)N)NC(=O)[C@@H](Cc2ccccc2)NC(=O)[C@H](Cc2c[nH]cn2)NC(=O)[C@H](CCC(=O)O)NC1=O [gallium-67 labelled] — tissue uptake (C57 mice, B16/F10 lung metastases, blood; intravenous, 0.037 MBq/mouse, 2 h): 0.21 ± 0.15 %ID/g
CCc1cc(Nc2nc(-c3ccc(-n4cnc(C)c4)c(F)c3)cs2)c(C)cc1C — apparent clearance (CL/F) (human, plasma; oral, 200 mg once daily, day 14, multiple dose, geometric mean): 44100 mL/h
CC[C@@H](C)N([11CH3])C(=O)c1nc(-c2ccccc2)c2ccccc2n1 — time to 50% parent radioligand in plasma (rhesus monkey male, plasma; intravenous, TSPO preblock): 9.4 min
CC(=O)N[C@H](CC(=O)O)C(=O)N[C@H](Cc1c[nH]c2ccccc12)C(=O)N[C@H](Cc1ccccc1)C(=O)N[C@H](CCCCN)C(=O)N[C@H](C)C(=O)N[C@H](Cc1ccccc1)C(=O)N[C@H](Cc1ccc(O)cc1)C(=O)N[C@H](CC(=O)O)C(=O)N[C@H](CCCCN)C(=O)N[C@@H](C(=O)N[C@H](C)C(=O)N[C@H](CCC(=O)O)C(=O)N[C@H](CCCCN)C(=O)N[C@H](Cc1ccccc1)C(=O)N[C@H](CCCCN)C(=O)N[C@H](CCC(=O)O)C(=O)N[C@H](C)C(=O)N[C@H](Cc1ccccc1)C(N)=O)C(C)C — Cmax (statin-treated high-risk CHD patients, plasma; oral, 100 mg daily, day 13, 0 to 8 h, mean, detected subjects only): 2.8 ng/mL
COc1cc(OC)cc(C2=C3C(C)=C(I)C(C)=[N+]3[B-](F)(F)n3c(/C=C/c4cccs4)c(I)c(C)c32)c1 — Stokes shift (THF): 329 cm⁻¹
NC[C@@H](C(=O)Nc1ccc(-c2cn[nH]c2)cc1)c1ccccc1 — iris score (OECD 405 eye irritation; New Zealand White rabbit, eye; topical, 0.1%, 97 h (day 5), scale 0 to 2; direction not given): 0
CC(C)C[C@@H](NC(=O)[C@H](NC(=O)[C@H]1CCCN1)[C@H](C)O)C(=O)N[C@H](Cc1c[nH]cn1)C(=O)N[C@@H](C(=O)N[C@H](Cc1c[nH]cn1)C(=O)N[C@H](CC(N)=O)C(=O)N[C@H](CCCNC(=N)N)C(=O)N[C@H](CCCNC(=N)N)C(=O)N[C@H](CCCNC(=N)N)C(=O)N[C@H](CCCNC(=N)N)C(=O)N[C@H](CCCNC(=N)N)C(N)=O)[C@H](C)O — Cmax (Beagle dog, CSF; oral, 20 mg/kg): 13 ± 15 ng/mL
O=C([O][Ti+2][O]C(=O)c1ccc(P(c2ccccc2)c2ccccc2)cc1)c1ccc(P(c2ccccc2)c2ccccc2)cc1.[Cl][Au].[Cl][Au].c1cc[cH-]c1.c1cc[cH-]c1 — elimination rate constant (ICP-MS, refers to: gold; NOD.CB17-Prkdc scid/J mice, blood or plasma; 7.5 mg/kg, after first injection): 0.1 h⁻¹
CCCCCCCCCCCCCCCC(=O)N[C@@H](CCCCN)C(=O)N[C@@H](CCCCN)C(=O)N[C@@H](CO)C(=O)N[C@@H](CCCNC(=N)N)C(=O)N[C@@H](C)C(=O)N[C@@H](CC(C)C)C(=O)N[C@@H](Cc1ccccc1)C(N)=O — aPTT (cynomolgus monkey, female; intravenous infusion, 3 mg/kg daily, day 5, 1 h infusion days 1-4): 26.8 ± 2.6 s
O=C(O)CC[C@H](NC(=O)N[C@@H](CCC(=O)NCCCCCNC(=O)CN1CCNCCN(Cc2cccc(C(=O)[O-])n2)CC1)C(=O)[O-])C(=O)O.[64Cu+2] — intact complex in urine (radio-HPLC; mice, urine; 120 min): > 50%
O=C1CCc2ccc(NS(=O)(=O)c3cccc(Oc4ccccc4)c3)cc2N1 — half-life (C57BL/6 mouse, brain; subcutaneous, 3 mg/kg): 212 min
CN1C(=O)[C@@H](Cc2ccc(O)c(I)c2)NC(=O)CNC(=O)[C@H](Cc2ccc3ccccc3c2)NC(=O)[C@H](CCCNC(=N)N)NC(=O)[C@H]1CCCNC(=O)c1ccc(CNC(=O)CN2CCN(CC(=O)O)CCN(CC(=O)O)CC2)cc1 [fluorine-18 labelled] — tissue ratio (CB17 SCID mouse, female, Daudi lymphoma xenograft; intravenous, 300 kBq, 1 h; relative to: tumour over muscle): 29.2 ± 4
COC(=O)C(c1ccccc1Cl)N1CCC(SCC(=O)c2cccc(OC)c2)C(=CC(=O)O)C1 (mixture of isomers) — deviation from nominal (HPLC-MS/MS; feline EDTA plasma; 100 ng/mL, 72 h, -80 °C, storage stability): 7%
COCCOCCOCCOCCOCCOCCOCCOCCC(=O)NCCCc1cc2cc3nc(cc4[nH]c(cc5nc(c(OC)c1[nH]2)C(=O)C5(C)C)cc4CCc1ccc(C(=O)O)cc1)CC3(C)C — internal conversion yield (DMF; room temperature): 0.31
O=C1c2sc(-c3ccc(N4CCC(CO)CC4)nc3F)nc2CCN1c1cccnc1 — brain washout ratio (PET imaging; rhesus monkey, whole brain; relative to: peak over 60 min): 15.5
CC(C)c1cnc(-c2cc(Cl)ccc2F)cc1Nc1ccncc1C(=O)NC(CO)CO — treatment-related serious adverse events (refers to: Anemia; solid tumour patients; oral, dose not given, phase I monotherapy): 4.8%

For quick reference, copied from above:
C[C@H](NC(=O)COC(=O)[C@H](C)NC(=O)CO)C(=O)O — depolymerization half-life (water; pH 8, 50 °C): 0.6 min
O=C1CCc2ccc(NS(=O)(=O)c3cccc(Oc4ccccc4)c3)cc2N1 — half-life (C57BL/6 mouse, brain; subcutaneous, 3 mg/kg): 212 min
COC(=O)C(c1ccccc1Cl)N1CCC(SCC(=O)c2cccc(OC)c2)C(=CC(=O)O)C1 (mixture of isomers) — deviation from nominal (HPLC-MS/MS; feline EDTA plasma; 100 ng/mL, 72 h, -80 °C, storage stability): 7%
